Published values pooled from the literature.
Lines come from different studies, so protocols differ.
UniProt P10635, sequence (whole entry, looked up): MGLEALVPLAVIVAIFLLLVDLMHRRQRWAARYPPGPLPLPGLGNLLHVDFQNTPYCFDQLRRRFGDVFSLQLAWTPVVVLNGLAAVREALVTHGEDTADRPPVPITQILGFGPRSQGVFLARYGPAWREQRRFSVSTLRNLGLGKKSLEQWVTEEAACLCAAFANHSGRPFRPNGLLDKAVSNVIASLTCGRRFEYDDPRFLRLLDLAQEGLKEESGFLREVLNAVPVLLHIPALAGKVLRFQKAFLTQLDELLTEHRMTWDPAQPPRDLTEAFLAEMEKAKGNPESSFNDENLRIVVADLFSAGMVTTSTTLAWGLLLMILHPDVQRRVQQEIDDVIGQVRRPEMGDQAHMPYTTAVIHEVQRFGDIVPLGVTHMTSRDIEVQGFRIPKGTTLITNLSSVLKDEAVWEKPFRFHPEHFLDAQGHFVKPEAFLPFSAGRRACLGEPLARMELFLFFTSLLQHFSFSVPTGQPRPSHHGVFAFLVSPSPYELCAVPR

Structure (SMILES) | tested on | test | system | setting | how to read | endpoint | value
CO[C@H]1C[C@@H]2CC[C@@H](C)[C@@](O)(O2)C(=O)C(=O)N2CCCC[C@H]2C(=O)O[C@H]([C@H](C)C[C@@H]2CC[C@@H](OC(=O)NCCOCCOCCOCCOCCOCCOCCOCCOCCC(=O)N3CCc4cc(Cn5nc(-c6ccc7oc(N)nc7c6)c6c(N)ncnc65)ccc4C3)[C@H](OC)C2)C[C@@H](O)[C@H](C)/C=C(\C)[C@@H](O)[C@@H](OC)C(=O)[C@H](C)C[C@H](C)/C=C/C=C/C=C/1C |  |  | patients with advanced solid tumours | intravenous, 1.6 mg/3 mg weekly, any grade |  | incidence of Mucositis TEAE | 20%
CC[C@H](C)[C@H](NC(=O)[C@H](C)NC(=O)[C@H](CCCNC(=N)N)NC(=O)[C@H](CCCNC(=N)N)NC(=O)[C@H](CCCNC(=N)N)NC(=O)[C@H](CCCNC(=N)N)NC(=O)[C@H](CCCNC(=N)N)NC(=O)[C@@H](N)CCCNC(=N)N)C(=O)N[C@@H](CO)C(=O)NCC(=O)N[C@@H](CO)C(=O)N[C@@H](CC(C)C)C(=O)N[C@H](C(=O)N[C@H](C(=O)N[C@@H](CC(C)C)C(=O)N[C@@H](Cc1ccccc1)C(=O)NCC(=O)N[C@@H](Cc1ccc(O)cc1)C(N)=O)[C@@H](C)O)C(C)C | human erythrocytes |  |  | 400 µM, 1 h | relative to: Triton X-100 | hemolysis | 13%
OC(CCN1CC=C(c2ccc(F)cc2)CC1)c1ccc(F)c2ccccc12 (centres unmarked) | Salmonella typhimurium | SOS response, SOS/umu test | TA1535/pSK1002, TGA medium | 0.000244 mg/mL, 4 h, together with: 10% rat liver S9 | relative to: untreated | induction factor | 1
CN1CC[C@@H](c2c(O)cc(O)c3c(=O)cc(-c4ccc(C(F)(F)F)cc4Cl)oc23)[C@@H]1CO |  | item: Syncope | relapsed AML | oral, 200 mg, grade 3-4, intermittent dosing |  | patients with adverse event | 20%
COc1cc2c(Oc3ccc4[nH]c(C)cc4c3F)ccnc2cc1OCC1(N)CC1 |  |  | paediatric refractory sarcoma patients | 12 mg |  | sinus arrhythmia incidence | 0%
Cc1cc(C(=O)NC(C)(C)COc2cccc3c2C(N)=NS(=O)(=O)N3)cc(C)n1 | Salmonella typhimurium | Ames test, initial | TA1535 | 50.0 µg/plate, together with: rat liver S9 | relative to: solvent control | revertant ratio | 0.8
CC[C@H](C)[C@H](NC(=O)[C@H](C)NC(=O)[C@H](CCCNC(=N)N)NC(=O)[C@H](CCCNC(=N)N)NC(=O)[C@@H](N)CCCNC(=N)N)C(=O)N[C@@H](CO)C(=O)NCC(=O)N[C@@H](CO)C(=O)N[C@@H](CC(C)C)C(=O)N[C@H](C(=O)N[C@H](C(=O)N[C@@H](CC(C)C)C(=O)N[C@@H](CCCNC(=N)N)C(=O)N[C@@H](CCCNC(=N)N)C(=O)N[C@@H](CCCNC(=N)N)C(N)=O)[C@@H](C)O)C(C)C | human erythrocytes |  |  | 400 µM, 1 h | relative to: Triton X-100 | hemolysis | 5%
CNC(C)Cc1ccc2c(c1)OCO2 (centres unmarked) | Cytochrome P450 2D6 (CYP2D6, Homo sapiens, UniProt P10635) | enzyme activity |  | 300 µM, preincubation without NADPH, together with: dextromethorphan O-demethylation |  | remaining activity | 24.9%

Excerpt of the above:
Structure (SMILES) | tested on | test | system | setting | how to read | endpoint | value
Cc1cc(C(=O)NC(C)(C)COc2cccc3c2C(N)=NS(=O)(=O)N3)cc(C)n1 | Salmonella typhimurium | Ames test, initial | TA1535 | 50.0 µg/plate, together with: rat liver S9 | relative to: solvent control | revertant ratio | 0.8
